Measured values pooled from the literature.
Each line is one published result; not all experiments were run side by side. ± gives the spread as reported.
Glutamate NMDA receptor; Grin1/Grin2c S688A: Glutamate NMDA receptor; Grin1/Grin2c (Rattus norvegicus, UniProt P35439+Q00961, S688A)
GABA-A receptor; alpha-1/beta-2/gamma-2: GABA-A receptor; alpha-1/beta-2/gamma-2 (Rattus norvegicus, UniProt P18508+P62813+P63138)
AHR: Aryl hydrocarbon receptor (AHR, Homo sapiens, UniProt P35869)
HDAC6 ZnF-UBD domain: Protein deacetylase HDAC6, ZnF-UBD domain (HDAC6, Homo sapiens, UniProt Q9UBN7)

Structure (SMILES) = CC[C@@H]1[C@H](F)C(=O)N[C@@H]1COc1nccc2cc(C(N)=O)c(OC)cc12; target or system = MASTL (Homo sapiens, UniProt Q96GX5); assay = ATP-site probe binding, inhibitor, ActivX ATP probe profiling; test system = THP-1 cell lysate; setting = 0.2 mM, ATP loop site; measurement = inhibition; value = 16.4%
Structure (SMILES) = CCOc1ccc(N(C)S(=O)(=O)c2cc(Cl)sc2C(=O)Nc2ccc3c(c2)C(=O)NC3=O)cc1OC; target or system = NR1H3 (Homo sapiens, UniProt Q13133); measurement = EC50; value = > 25000 nM
Structure (SMILES) = CC1=C(C(=O)OC(C)C)C(c2ccccc2Br)C2=C(CC(C)(C)CC2=O)N1 (stereo not drawn); target or system = ADGRG1 (Homo sapiens, UniProt Q9Y653, H381S); assay = agonist, GTPγS binding; setting = added: G13; measurement = EC50; value = 6690 ± 560 nM
Structure (SMILES) = NC[C@H](O)c1ccc(O)c(O)c1; target or system = ADRA2B (Homo sapiens, UniProt P18089); assay = AP-TGFα shedding; test system = HEK293A; measurement = EC50; value = 4.7 nM
Structure (SMILES) = COc1cc(Nc2ncc3c(n2)-c2ccc(Cl)cc2C(c2c(F)cccc2OC)=NC3)ccc1C(=O)NCCOCCOCCNC(=O)COc1cccc2c1C(=O)N(C1CCC(=O)NC1=O)C2=O (stereo not drawn); target or system = ABL1 (Homo sapiens, UniProt P00519); assay = binding, kinobead competition; test system = MV4-11 cell lysate; measurement = EC50; value = > 30000 nM
Structure (SMILES) = CCc1ccccc1-c1ccc(C(=O)NC[C@@H](N)C(=O)O)s1; target or system = Glutamate NMDA receptor; Grin1/Grin2c S688A; assay = receptor activation, positive modulator; test system = rat; setting = added: glutamate 300 µM; measurement = EC50; value = 2 nM
Structure (SMILES) = CC(=O)c1cc([N+](=O)[O-])c(Sc2cccc(Cl)c2Cl)s1; target or system = USP7 (Homo sapiens, UniProt Q93009); assay = enzyme activity, inhibitor; measurement = EC50; value = 4200 nM
Structure (SMILES) = CCCCCCCC/C=C\CCCCCCCC(=O)NCCc1ccc(O)c(O)c1; target or system = Trpv1 (Mus musculus, UniProt Q704Y3, Y555F); assay = ion current, agonist, whole-cell patch clamp; setting = 24 °C, Y555F, +80 mV; measurement = EC50; value = 650 ± 610 nM
Structure (SMILES) = Cn1cnc2ccc(Nc3c(F)ccc(NS(=O)(=O)N4CC(F)C4)c3Cl)c(Cl)c2c1=O; target or system = BRAF (Homo sapiens, UniProt P15056, V600E); assay = target engagement, isothermal dose-response CETSA, LC-MS; test system = A-375; setting = 30 min, 37 °C; measurement = EC50; value = 34.4 nM
Structure (SMILES) = O=C(O)C1=CCNCC1; target or system = GABA-A receptor; alpha-1/beta-2/gamma-2; assay = chloride current, agonist, whole-cell patch clamp; test system = HEK293 expressing GABAA; setting = 30 s; measurement = EC50; value = 9600 nM
Structure (SMILES) = N[C@H](CNC(=O)c1cc(Br)c(-c2ccccc2F)s1)C(=O)O; target or system = Glutamate NMDA receptor; Grin1/Grin2c (Rattus norvegicus, UniProt P35439+Q00961, Y692L); assay = receptor activation, positive modulator; test system = rat; setting = added: glutamate 300 µM; measurement = EC50; value = 123 nM
Structure (SMILES) = CCn1c(-c2nc3ccc(C(=O)N4CCCC(N)C4)cc3n2C)cc2ccccc21 (stereo not drawn); target or system = AHR; assay = agonist, FRET; measurement = EC50; value = > 100000 nM
Structure (SMILES) = CC(C)C[C@H](NC(=O)[C@H](Cc1ccccc1)NC(=O)[C@@H](N)Cc1ccc(O)cc1)C(=O)N[C@@H](Cc1ccccc1)C(=O)N[C@@H](CCCNC(=N)N)C(=O)N1CCC[C@H]1C(=O)N[C@@H](CCCNC(=N)N)C(=O)N[C@@H](CC(N)=O)C(N)=O; target or system = Neuromedin-U receptor 2 (Mus musculus, UniProt Q8BZ39); assay = Gq signalling, agonist, IP-1 accumulation; setting = from mean pEC50; measurement = EC50; value = 69.2 nM
Structure (SMILES) = Cc1ccc2ccc3ccc(C)cc3c2c1; target or system = AHR; assay = reporter gene, agonist, yeast LacZ reporter; test system = Saccharomyces cerevisiae; setting = 18 h; measurement = EC50; value = 1780 nM
Structure (SMILES) = Cn1cc(-c2ccc(-c3cncc(Cl)c3N3CCC4(CCNC4=O)CC3)cc2)cn1; target or system = COLO 205; assay = gene expression, microarray, item: LAMB3 mRNA; setting = concentration not given, 2 h; scale = relative to: untreated cells; measurement = log2 fold change; value = 3.78
Structure (SMILES) = Cn1cc2c(C(=O)O)ccc(NS(=O)(=O)c3ccc(OCC4CCC4)c(Cl)c3)c2n1; target or system = CHRM1 (Homo sapiens, UniProt P11229); assay = agonist; measurement = EC50; value = > 10000 nM
Structure (SMILES) = CNC[C@H](O)c1cccc(O)c1; target or system = Alpha-1D adrenergic receptor, Δ1-79 (ADRA1D, Homo sapiens, UniProt P25100); assay = calcium mobilisation, agonist; test system = COS-7 transfected; measurement = EC50; value = 8.32 nM
Structure (SMILES) = O=S(=O)(O)C1CCNCC1; target or system = GABA-A receptor; alpha-1/beta-2/gamma-2; assay = membrane potential, agonist, QP-DHM fluorescence; test system = HEK293 expressing GABAA; measurement = EC50; value = 3700 nM
Structure (SMILES) = CC(C)C[C@H](NC(=O)[C@H](Cc1ccccc1)NC(=O)[C@H](Cc1ccc(O)cc1)NC(=O)CNC(=O)[C@H](CCCNC(=N)N)NC(=O)[C@H](CO)NC(=O)[C@H](CCC(N)=O)NC(=O)[C@H](CO)NC(=O)[C@H](C)NC(=O)[C@H](Cc1ccccc1)NC(=O)[C@@H]1CCCN1C(=O)[C@H](CO)NC(=O)[C@H](CCC(N)=O)NC(=O)[C@H](Cc1ccccc1)NC(=O)[C@H](CCC(=O)O)NC(=O)[C@H](CCC(=O)O)NC(=O)[C@H](CC(=O)O)NC(=O)[C@@H](NC(=O)[C@H](CCCNC(=N)N)NC(=O)[C@@H](N)Cc1ccccc1)C(C)C)C(=O)N[C@@H](Cc1ccccc1)C(=O)N[C@@H](CCCNC(=N)N)C(=O)N1CCC[C@H]1C(=O)N[C@@H](CCCNC(=N)N)C(=O)N[C@@H](CC(N)=O)C(N)=O; target or system = NMUR1 (Homo sapiens, UniProt Q9HB89); assay = beta-arrestin recruitment, agonist; measurement = EC50; value = 0.0871 nM
Structure (SMILES) = O=C1Nc2c(ccc(Cl)c2Cl)C1=NO; target or system = KCNN4/CALM1 (Homo sapiens, UniProt O15554+P0DP23); assay = ion current, activator, whole-cell patch clamp; test system = HEK293; setting = added: 250 nM free calcium; measurement = EC50; value = 74 nM
Structure (SMILES) = CCCCNc1c(C(=O)OCC)c(C)nc2c1cnn2CC; target or system = GABA-A receptor; alpha-1/beta-2/gamma-2; assay = membrane potential, agonist, QP-DHM fluorescence; test system = HEK293 expressing GABAA; measurement = EC50; value = 9900 nM
Structure (SMILES) = CCCCC/C=C\C/C=C\C/C=C\C=C\C(=O)CCCC(=O)O; target or system = OXER1 (Homo sapiens, UniProt Q8TDS5); assay = agonist, cell-based; measurement = EC50; value = 1820 nM
Structure (SMILES) = N[C@H](CNC(=O)c1ccc(-c2ccccc2Br)s1)C(=O)O; target or system = Glutamate NMDA receptor; Grin1/Grin2c S688A; assay = receptor activation, positive modulator; test system = rat; setting = added: glutamate 300 µM; measurement = EC50; value = 5.2 nM
Structure (SMILES) = O=C(O)CNC(=O)c1ccc(S(=O)(=O)N2CCC(n3c(=O)oc4ccccc43)CC2)cc1; target or system = HDAC6 ZnF-UBD domain; measurement = Kd; value = 234000 nM
Structure (SMILES) = CCCCC[C@H](O)/C=C/[C@H]1[C@H](O)CC(=O)[C@@H]1C/C=C\CCCC(=O)O; target or system = PTGER1 (Homo sapiens, UniProt P34995, G92T); assay = IP1 accumulation, agonist; test system = AD293; setting = EP1 G92T mutant; measurement = EC50; value = 13.4 nM
Structure (SMILES) = CC(C)C[C@H](NC(=O)C[C@H](O)[C@H](CC(C)C)NC(=O)[C@H](Cc1c[nH]cn1)NC(=O)CNC(=O)[C@@H](NC(=O)[C@H](C)NC(=O)[C@H](Cc1c[nH]c2ccccc12)NC(=O)[C@H](CCC(N)=O)NC(=O)[C@@H](Cc1ccccc1)NC(=O)COCCOCCNC(=O)CCC(C(=O)O)N1CCN(CC(=O)O)CCN(CC(=O)O)CCN(CC(=O)O)CC1)C(C)C)C(N)=O (stereo partly drawn) [lutetium-177 labelled]; test system = female BALB/c nu/nu mice, kidneys; setting = intravenous, 100 pmol, 48 h, added: PA 300 µg; measurement = tissue uptake; value = 0.53 ± 0.15 %ID/g
Structure (SMILES) = COc1cc2oc(=O)cc(C)c2cc1CCC(=O)O; target or system = HDAC6 ZnF-UBD domain; measurement = Kd; value = 343000 nM

A few entries again:
Structure (SMILES) = Cn1cnc2ccc(Nc3c(F)ccc(NS(=O)(=O)N4CC(F)C4)c3Cl)c(Cl)c2c1=O; target or system = BRAF (Homo sapiens, UniProt P15056, V600E); assay = target engagement, isothermal dose-response CETSA, LC-MS; test system = A-375; setting = 30 min, 37 °C; measurement = EC50; value = 34.4 nM
